Measurements from different studies.
Each numbered part is a random draw from the data of one study; scales do not carry over between parts. Substitutions count along the parent as printed.

Sample 1
Target: UDP-N-acetylglucosamine--peptide N-acetylglucosaminyltransferase 110 kDa subunit (OGT, Homo sapiens, UniProt O15294)
Sequence of UniProt O15294 (whole entry, looked up): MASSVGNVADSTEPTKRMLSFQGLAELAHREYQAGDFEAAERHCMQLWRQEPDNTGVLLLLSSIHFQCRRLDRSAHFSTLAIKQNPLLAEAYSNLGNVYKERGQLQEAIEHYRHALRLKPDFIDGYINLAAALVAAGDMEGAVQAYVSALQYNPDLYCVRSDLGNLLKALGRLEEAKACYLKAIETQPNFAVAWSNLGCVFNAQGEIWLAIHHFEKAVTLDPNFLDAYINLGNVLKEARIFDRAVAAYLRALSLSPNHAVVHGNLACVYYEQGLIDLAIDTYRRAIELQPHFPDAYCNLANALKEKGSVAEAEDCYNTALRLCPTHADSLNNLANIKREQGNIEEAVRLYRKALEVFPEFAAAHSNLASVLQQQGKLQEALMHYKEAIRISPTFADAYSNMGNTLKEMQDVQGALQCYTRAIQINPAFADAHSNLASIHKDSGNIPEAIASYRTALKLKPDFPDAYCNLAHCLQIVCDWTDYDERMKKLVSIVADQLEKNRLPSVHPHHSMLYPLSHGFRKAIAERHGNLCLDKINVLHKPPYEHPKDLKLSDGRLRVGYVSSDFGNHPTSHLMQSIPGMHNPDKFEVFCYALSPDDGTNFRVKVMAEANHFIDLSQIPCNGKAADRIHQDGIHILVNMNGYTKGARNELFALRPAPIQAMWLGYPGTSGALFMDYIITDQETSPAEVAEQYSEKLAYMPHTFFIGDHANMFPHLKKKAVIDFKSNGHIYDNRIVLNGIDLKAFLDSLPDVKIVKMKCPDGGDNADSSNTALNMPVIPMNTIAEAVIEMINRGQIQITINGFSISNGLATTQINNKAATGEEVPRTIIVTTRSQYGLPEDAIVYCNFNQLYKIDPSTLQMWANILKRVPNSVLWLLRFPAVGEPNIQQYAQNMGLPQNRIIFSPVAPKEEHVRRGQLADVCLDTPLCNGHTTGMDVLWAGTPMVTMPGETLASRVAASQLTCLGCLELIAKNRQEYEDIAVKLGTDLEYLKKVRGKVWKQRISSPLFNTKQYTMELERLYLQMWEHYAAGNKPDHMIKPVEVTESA
Effect on: binding
Technique: phage display NGS
Form: peptide
Tested at: concentration not given
Relative to: input library
Quantity: enrichment fold change
Molecule = TTHYLPVYQIELKNA; result = 2.62
Molecule = VLWPPYTYHHNHHRI; result = 56.2
Molecule = RYYEPVYQIVATNSN; result = 6.31
Molecule = AHQNRYMPFYKIEFF; result = 9.15
Molecule = HQAHRTHFPSRTDYV; result = 4.04
Molecule = THTYHPHHIPSDHVH; result = 10.1
Molecule = HYTPHQQQRAHAKWS; result = 13.7
Molecule = TFMPQTHHRPHHSNH; result = 10.1

Sample 2
Target: CCNB3, cyclin fold, Cln2 fusion (human)
Technique: yeast growth competition, sequencing
Sample: yeast
Setting: strong parent motif
Relative to: not given
Direction: higher = stronger binding
Quantity: normalised enrichment score
Parent: viral docking peptide; TSVRRALFTGGSD
Variant = F8V; result = 0.0505
Variant = G11F; result = 1.6
Variant = L7M; result = 0.314
Variant = T9P; result = 2.28
Variant = G11K; result = 1.51
Variant = S2F; result = 1.7
Variant = R4Y; result = 0.465
Variant = L7P; result = 0.0337

Sample 3
Target: inorganic phosphate, free oxyanion
Technique: microfluidic competitive inhibition
Sample: in vitro, cell-free expressed
Tested at: not given
Setting: derived from inhibition constants, unchanged parent 615000 nM
Direction: lower = stronger binding
Quantity: phosphate dissociation constant
Parent: PafA, mature enzyme, eGFP fusion (Elizabethkingia meningoseptica, UniProt Q9KJX5); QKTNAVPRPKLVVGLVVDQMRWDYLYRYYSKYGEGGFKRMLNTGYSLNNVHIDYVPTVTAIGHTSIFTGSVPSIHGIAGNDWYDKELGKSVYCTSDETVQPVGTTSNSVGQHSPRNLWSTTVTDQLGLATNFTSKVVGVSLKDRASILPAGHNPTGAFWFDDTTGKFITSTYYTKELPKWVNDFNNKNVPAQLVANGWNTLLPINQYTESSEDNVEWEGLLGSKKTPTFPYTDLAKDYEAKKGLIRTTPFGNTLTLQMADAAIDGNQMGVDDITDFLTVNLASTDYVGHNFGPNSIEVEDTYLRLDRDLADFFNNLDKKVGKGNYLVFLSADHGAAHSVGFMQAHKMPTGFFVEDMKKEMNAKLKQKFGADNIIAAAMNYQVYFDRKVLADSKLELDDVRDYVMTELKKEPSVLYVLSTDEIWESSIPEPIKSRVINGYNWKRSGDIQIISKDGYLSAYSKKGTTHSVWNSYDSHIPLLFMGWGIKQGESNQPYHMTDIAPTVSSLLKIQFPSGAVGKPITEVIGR
Variant = Q1V; result = 655 µM
Variant = Y415G; result = 346 µM
Variant = A331G; result = 407 µM
Variant = G251A; result = 501 µM
Variant = K241G; result = 632 µM
Variant = A310V; result = 666 µM
Variant = E359V; result = 648 µM
Variant = L87G; result = 450 µM

Mixed results
SMILES = O=C1CCC(N2Cc3c(ccc4c3OCC43CCN(Cc4ccccc4)CC3)C2=O)C(=O)N1 (stereo not shown); system = male Sprague Dawley rats, plasma; conditions = intravenous, 1 mg/kg, 8 h; quantity = plasma concentration; result = 17.3 ng/mL

Excerpt of the above (sample 3):
Variant = Y415G; result = 346 µM
Variant = L87G; result = 450 µM
